Measurements pooled from the literature.
Parts stem from different laboratories: compare values within a part only. Changes are numbered by the printed parent chain.

Block 1
Target: CCNE2, cyclin fold, Cln2 fusion (human)
Technique: yeast growth competition, sequencing
Sample: yeast
Setting: weak parent motif
Reference: not given
Direction: higher = stronger binding
Starting sequence: SLBP docking peptide (human); ARYKRKLLINDFG
Variant	normalised enrichment score
G13Y	1.18
K4V	0.0101
D11E	0.78
R2T	0.972
L7A	-0.151
R5S	1.09
N10T	0.812
R2V	0.738
I9W	1.23
A1E	0.263
N10Y	0.617
I9G	1.01
G13A	-0.0704
R5H	0.878
K4Y	0.0579
F12G	0.504
R2K	0.479
D11H	0.422
L7V	0.205
I9L	0.991
L7G	0.584
R2G	1.16
G13T	0.365
K4G	-0.193
L8F	2.11

Block 2
Target: Fragile X messenger ribonucleoprotein 1, C-terminal low-complexity region (Fmr1, Mus musculus, UniProt P35922)
Technique: RNA Bind-n-Seq
Form: RNA
Sample: in vitro
Concentration: 200 nM
Setting: whole 134-nt RNA, ends assumed
Added: 150 mM LiCl
Reference: input library
Direction: higher = stronger binding
Each molecule: 7-deaza-guanosine replaces G
Constant ends, left off below: GGGAGUUCUACAGUCCGACGAUC … UGGAAUUCUCGGGUGUCAAGG
Oligonucleotide	log2 enrichment
ACCAUGCAGGUGGGCAUCUUUGGGAAGUGGGGCAAGGGCGGGAUAGGGAGGGGGGUAACACUUUGGGAACAGGUGGUCCCAGGUCGUUUC	1.01
UUAAGACAGUCAUUUUAAAAUGGUGGCUGAAUUUCCCAACCCACCCCCAAACUAAACACUAAGUUUAAUUUUCAGCUCCUCUGUUGGACA	0.763
AACACUCAAACCACCAUCAAGCUUUUCCAGGAAUGCUGUCCUCAUUCCACUGACAGAGUUGUUCUUAUUGGAGGAAAACCCGAUAGGGUU	1.19
AAGUCCUGUGCUACACAUCGUAUGUACCGAAUCGGGGAAAAGGGAAAAGGAAAAGGAAAGUAUUAUGUUACGCCGUUCGGAUCUGCACUU	-0.746
AGUCCUGUGCUACACAUCGUAUGUACCGAAUCGGGUUUUGGGGUUUUGGGUUUUGGGGAAAGUAUUAUGUUACGCCGUUCGGAUCUGCAC	-0.477
CACAGACAACACGCACCCACACAGACACAGAGGGAAGGGGUUGGGAUGGGGACAGGGUGCACAGCAGGGCGGGGUAGGACCCGAGCCCCU	-0.384
GCAGGAAGUAAAAACAAAUGGAAAUGCUUCGGAUAGUGGCAGGGGUGGGGGUUGCUAAGGAAAGGGUGGGAUGGGAGUGGGUAAAGAGAU	1.74
UGGGGGGUGGAUUUUGUUUAUUUUUUUAGCUCAUUUCCAGGGGUGGGAAUUUUUUUUUAAUAUGUGUCAUGAAUAAAGUUGUUUUUGAAA	1.47
GUCCUGUGCUACACAUCGUAUGUACCGAAUCGGUUUUUUUGGAAAAAGGAAAAAAAGGAAAGUAUUAUGUUACGCCGUUCGGAUCUGCAC	-2.49
UCAAGUCCUGUGCUACACAUCGUAUGUACCGAAUCGGGCCGGCCGGGGCCGGGGAAAGUAUUAUGUUACGCCGUUCGGAUCUGCACUUCC	-0.26
UUAAUAGAUUGAACUUCAAAAAAAAAUUCUUUCUUAAUUUCUGGAUUAAAAAGUAUGCCUGUGUCUUCUAGACCUUUACCAGAAGAUGAU	-2.03

Block 3
Target: Sal-like protein 4, full length isoform A (SALL4, Homo sapiens, UniProt Q9UJQ4, residues 1-1053)
Sequence of UniProt Q9UJQ4 (whole entry, looked up): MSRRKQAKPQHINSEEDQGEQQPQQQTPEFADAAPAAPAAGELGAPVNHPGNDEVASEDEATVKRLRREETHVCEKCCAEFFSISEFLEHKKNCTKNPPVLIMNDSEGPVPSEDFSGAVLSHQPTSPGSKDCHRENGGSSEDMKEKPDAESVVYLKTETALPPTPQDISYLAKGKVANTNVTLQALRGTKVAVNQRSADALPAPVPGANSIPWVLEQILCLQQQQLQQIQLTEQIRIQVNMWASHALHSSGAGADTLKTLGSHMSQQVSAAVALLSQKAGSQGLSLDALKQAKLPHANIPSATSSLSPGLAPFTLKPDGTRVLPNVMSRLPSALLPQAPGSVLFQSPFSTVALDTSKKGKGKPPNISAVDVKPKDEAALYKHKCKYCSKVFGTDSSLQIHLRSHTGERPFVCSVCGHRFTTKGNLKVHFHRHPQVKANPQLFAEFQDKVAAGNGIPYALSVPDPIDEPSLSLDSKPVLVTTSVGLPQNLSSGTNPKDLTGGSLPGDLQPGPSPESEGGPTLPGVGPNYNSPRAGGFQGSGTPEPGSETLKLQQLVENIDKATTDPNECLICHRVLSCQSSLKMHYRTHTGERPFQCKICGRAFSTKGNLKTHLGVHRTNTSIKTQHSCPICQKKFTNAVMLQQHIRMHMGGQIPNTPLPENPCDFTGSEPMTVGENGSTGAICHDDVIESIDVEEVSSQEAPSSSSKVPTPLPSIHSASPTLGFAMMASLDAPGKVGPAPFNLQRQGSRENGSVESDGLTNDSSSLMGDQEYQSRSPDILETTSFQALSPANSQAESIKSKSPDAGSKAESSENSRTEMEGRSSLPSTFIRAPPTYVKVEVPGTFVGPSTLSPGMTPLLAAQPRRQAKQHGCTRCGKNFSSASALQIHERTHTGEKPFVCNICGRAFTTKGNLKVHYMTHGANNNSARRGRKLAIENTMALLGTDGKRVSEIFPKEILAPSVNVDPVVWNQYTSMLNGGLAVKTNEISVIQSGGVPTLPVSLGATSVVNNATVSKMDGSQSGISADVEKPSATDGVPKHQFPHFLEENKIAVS
Technique: universal PBM
Form: double-stranded DNA, one strand shown
Sample: in vitro
Concentration: 600 nM
Setting: 8-mer, flanks averaged, mean of replicates
Direction: higher = stronger binding
Oligonucleotide	E-score
CGTGATAA	0.194
TCTCTTAA	0.139
AACCCATG	-0.0361
CAATACCC	0.0203
TATTGGCA	0.204
AATGGCTC	-0.0657
AGGCGATG	-0.141
CCGCGAAA	-0.139
AGCTGTAA	0.0621
AAACAGGG	-0.0817
AAATTCAC	0.138
TAAATTTA	0.36
AGGAGTAC	-0.132
AGAAGGCT	-0.159
AGGGGGAA	-0.132
GGGCCAAA	-0.2
TGGATACA	0.0981
CACGAGTC	-0.123
CCGGATTC	-0.259
ACATGCCT	-0.027
GGGACCTA	-0.206
AAGCCTGT	0.00866
ATCGCTTC	0.105
CCCTAATC	-0.102
ATTTCCAG	0.0832

Block 4
Target: Interferon regulatory factor 5, full length, phosphomimetic (IRF5, Homo sapiens, UniProt Q13568-2, residues 1-514, K96S/S451D/S453D/S456D/S462D)
Technique: protein-binding microarray
Form: double-stranded DNA, one strand shown
Sample: in vitro
Concentration: 250 nM
Setting: 60-bp whole probe
Added: salmon DNA 0.4 mg/ml
Reference: random background probes
Direction: higher = stronger binding
Constant ends, left off below: GCCTAGCAC … GTCTTGATTCGCTTGACGCTGCTG
Oligonucleotide	log fluorescence [z-score]
GACGATATCGGGTTTCAAGACGTGCTA	2.11
TTAGGACTGCTTATACTTTAGTGCTAG	0.0589
TTAGGAGTGGACTTTCGGTTAGTGCTA	9.58
TCATTTCTTTAACTCATACTGTGCTAG	0.971
TTAGAACTGGGGTTTCGATTCGTGCTA	4.82
TCAGGACTGGACTTTCGGTTAGTGCTA	9.61
TTAGGACTGGGACGGGGTTAGTGCTAG	-0.215
CCCACTTTCACTTCTCCCTTGTGCTAG	8.1
TTAGGACTGGGGTTACGGTTAGTGCTA	-0.351
GACGGTCTCCTTTTCGTGACGTGCTAG	0.107
TATGGTATTTTTTTCTAATTGTGCTAG	0.861
GACGATATAAGTCTCGAGACGTGCTAG	0.595
TTTTCATTTTTTTTCATCATGTGCTAG	3.37
GACGTTATCGGTATCGGGACGTGCTAG	6.23
TCATGTCTGGATGTGCCACTGTGCTAG	0.0102
TTACATTTCGGGACTGGATTAGTGCTA	2.9
GACGAACTGGGGTATCGAGCCGTGCTA	-0.259
GACTAACTGGGGACTGGAGACGTGCTA	-0.552
TTTAAGCTCCTATCTTATGATGTGCTA	0.331
CATACAATTTCAGATTCCAGTGTGCTA	1.12
TTAGATTTCAGTCTTGATTAGTGCTAG	1.89
GTAGGTATCGGGTATCGGTTAGTGCTA	6.44
CACGGTTTCGGACTGGGGACGTGCTAG	3.66

Excerpt of the above (block 1):
Variant	normalised enrichment score
A1E	0.263
L7G	0.584
R2T	0.972
D11H	0.422
G13Y	1.18
R5S	1.09
D11E	0.78
G13T	0.365
L7A	-0.151
K4V	0.0101
R2K	0.479
G13A	-0.0704
R2G	1.16
